# Measured values gathered from unrelated publications.
# Protocols differ between the studies behind these lines. ± gives the spread as reported.
# Slc6a3: Sodium-dependent dopamine transporter (Slc6a3, Rattus norvegicus, UniProt P23977)
# UniProt P23977, sequence (whole entry, looked up): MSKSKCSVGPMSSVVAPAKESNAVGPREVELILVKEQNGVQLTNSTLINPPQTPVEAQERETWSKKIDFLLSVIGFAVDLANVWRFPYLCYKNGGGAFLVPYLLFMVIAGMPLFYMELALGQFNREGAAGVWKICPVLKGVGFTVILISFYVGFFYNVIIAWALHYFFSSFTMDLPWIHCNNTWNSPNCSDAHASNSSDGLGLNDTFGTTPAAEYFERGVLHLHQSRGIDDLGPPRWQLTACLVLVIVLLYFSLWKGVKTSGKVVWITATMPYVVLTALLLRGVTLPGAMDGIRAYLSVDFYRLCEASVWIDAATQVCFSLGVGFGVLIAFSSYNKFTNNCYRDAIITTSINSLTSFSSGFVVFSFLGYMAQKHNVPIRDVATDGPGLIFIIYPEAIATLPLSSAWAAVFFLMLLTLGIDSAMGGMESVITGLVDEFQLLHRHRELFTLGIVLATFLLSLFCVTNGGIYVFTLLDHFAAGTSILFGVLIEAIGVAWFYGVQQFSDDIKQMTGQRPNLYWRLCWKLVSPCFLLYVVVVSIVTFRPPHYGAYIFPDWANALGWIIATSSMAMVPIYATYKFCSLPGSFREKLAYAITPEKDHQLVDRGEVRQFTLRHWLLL
# CNR1: Cannabinoid receptor 1 (CNR1, Homo sapiens, UniProt P21554)
# UniProt P21554, sequence (whole entry, looked up): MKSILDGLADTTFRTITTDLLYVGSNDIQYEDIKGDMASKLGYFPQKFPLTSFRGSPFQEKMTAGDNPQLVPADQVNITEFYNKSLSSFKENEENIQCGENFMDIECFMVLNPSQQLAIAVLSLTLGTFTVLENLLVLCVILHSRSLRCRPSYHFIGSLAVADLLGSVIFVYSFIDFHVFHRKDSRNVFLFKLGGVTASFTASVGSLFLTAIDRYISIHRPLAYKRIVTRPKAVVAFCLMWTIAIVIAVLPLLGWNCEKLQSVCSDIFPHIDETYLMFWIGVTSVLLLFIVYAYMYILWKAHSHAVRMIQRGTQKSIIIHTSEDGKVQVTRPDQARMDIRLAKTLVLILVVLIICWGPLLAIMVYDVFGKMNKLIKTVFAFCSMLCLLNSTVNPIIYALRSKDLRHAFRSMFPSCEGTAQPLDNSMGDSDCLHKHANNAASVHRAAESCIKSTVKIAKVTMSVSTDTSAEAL
# ADRA2C: Alpha-2C adrenergic receptor (ADRA2C, Homo sapiens, UniProt P18825)
# UniProt P18825, sequence (whole entry, looked up): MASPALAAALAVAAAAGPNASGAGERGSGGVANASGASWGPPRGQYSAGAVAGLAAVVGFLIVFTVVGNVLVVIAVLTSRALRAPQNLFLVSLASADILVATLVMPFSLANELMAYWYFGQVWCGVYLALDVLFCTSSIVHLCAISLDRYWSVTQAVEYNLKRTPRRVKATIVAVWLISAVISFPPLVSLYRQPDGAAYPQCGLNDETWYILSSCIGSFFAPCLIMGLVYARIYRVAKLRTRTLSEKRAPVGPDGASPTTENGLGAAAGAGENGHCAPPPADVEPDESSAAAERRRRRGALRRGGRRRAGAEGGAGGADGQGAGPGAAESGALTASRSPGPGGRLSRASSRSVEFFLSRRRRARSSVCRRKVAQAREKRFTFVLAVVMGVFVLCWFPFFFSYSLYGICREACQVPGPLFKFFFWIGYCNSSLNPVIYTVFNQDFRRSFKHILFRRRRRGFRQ
# UniProt Q9NRN7, sequence (whole entry, looked up): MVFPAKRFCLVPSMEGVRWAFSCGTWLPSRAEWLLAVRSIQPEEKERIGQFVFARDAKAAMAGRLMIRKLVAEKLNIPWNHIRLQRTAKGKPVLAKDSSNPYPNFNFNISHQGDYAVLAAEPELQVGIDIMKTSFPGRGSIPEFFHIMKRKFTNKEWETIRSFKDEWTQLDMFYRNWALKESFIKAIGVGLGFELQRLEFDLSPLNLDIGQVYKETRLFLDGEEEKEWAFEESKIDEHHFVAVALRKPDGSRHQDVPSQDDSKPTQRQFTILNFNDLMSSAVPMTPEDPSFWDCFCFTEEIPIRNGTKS
# UniProt P14060, sequence (whole entry, unmodified, looked up): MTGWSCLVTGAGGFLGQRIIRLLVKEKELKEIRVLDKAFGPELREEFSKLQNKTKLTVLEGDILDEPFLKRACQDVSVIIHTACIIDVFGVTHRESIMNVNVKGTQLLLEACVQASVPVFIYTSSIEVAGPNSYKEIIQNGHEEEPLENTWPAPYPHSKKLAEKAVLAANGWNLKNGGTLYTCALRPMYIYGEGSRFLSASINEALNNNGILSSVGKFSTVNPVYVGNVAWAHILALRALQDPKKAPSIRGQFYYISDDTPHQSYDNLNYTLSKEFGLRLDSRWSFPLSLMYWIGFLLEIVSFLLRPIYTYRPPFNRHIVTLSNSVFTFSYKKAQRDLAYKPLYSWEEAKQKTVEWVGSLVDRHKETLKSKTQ
# UniProt O50406, sequence (whole entry, looked up): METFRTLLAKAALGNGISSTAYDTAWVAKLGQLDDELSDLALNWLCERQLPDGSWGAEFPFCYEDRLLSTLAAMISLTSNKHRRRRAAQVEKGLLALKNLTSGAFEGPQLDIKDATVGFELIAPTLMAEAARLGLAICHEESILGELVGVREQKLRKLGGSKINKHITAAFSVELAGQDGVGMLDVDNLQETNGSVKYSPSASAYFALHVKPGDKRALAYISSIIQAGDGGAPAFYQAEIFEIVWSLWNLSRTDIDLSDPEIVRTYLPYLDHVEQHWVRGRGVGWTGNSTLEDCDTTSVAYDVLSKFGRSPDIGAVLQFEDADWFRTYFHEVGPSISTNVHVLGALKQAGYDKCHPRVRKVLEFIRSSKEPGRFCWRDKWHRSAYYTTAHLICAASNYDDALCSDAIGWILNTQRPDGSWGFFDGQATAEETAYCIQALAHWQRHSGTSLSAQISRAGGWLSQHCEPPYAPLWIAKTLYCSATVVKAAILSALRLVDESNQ
# UniProt Q9Y5N1, sequence (whole entry, looked up): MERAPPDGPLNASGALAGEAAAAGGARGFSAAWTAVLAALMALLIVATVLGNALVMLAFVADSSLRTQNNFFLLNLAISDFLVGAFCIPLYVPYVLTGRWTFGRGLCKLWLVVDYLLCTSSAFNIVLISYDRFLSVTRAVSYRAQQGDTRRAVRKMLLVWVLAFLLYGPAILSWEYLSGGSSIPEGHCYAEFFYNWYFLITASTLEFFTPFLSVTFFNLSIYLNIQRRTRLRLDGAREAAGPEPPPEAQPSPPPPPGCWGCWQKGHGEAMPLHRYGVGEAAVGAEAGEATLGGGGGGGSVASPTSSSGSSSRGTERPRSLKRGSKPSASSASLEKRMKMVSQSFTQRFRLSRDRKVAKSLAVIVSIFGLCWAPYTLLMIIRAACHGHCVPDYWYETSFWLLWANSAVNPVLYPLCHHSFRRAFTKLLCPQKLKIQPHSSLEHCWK
# UniProt P9WJM9, sequence (whole entry, looked up): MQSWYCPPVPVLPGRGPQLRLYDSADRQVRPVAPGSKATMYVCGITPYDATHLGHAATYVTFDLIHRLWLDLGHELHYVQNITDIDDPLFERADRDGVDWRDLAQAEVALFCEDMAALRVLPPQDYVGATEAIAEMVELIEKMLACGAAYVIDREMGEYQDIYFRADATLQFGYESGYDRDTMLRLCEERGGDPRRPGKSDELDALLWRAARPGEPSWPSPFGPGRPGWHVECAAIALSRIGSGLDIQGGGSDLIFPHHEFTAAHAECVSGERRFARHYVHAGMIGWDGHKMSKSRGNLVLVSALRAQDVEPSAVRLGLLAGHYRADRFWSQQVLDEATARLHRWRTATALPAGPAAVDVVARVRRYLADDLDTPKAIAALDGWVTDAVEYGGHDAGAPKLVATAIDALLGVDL
# UniProt P62813, sequence (whole entry, looked up): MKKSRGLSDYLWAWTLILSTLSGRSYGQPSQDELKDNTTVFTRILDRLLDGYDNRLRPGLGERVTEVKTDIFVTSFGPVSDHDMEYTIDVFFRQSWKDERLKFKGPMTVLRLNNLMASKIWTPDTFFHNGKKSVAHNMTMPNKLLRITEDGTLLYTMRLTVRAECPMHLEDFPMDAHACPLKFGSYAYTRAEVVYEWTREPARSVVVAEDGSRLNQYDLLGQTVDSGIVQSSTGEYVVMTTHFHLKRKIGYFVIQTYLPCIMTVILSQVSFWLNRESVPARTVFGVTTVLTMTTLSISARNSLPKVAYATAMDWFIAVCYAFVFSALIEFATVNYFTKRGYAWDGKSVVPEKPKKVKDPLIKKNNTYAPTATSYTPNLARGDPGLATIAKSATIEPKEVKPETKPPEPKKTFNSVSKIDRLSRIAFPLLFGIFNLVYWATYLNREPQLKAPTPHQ
# UniProt P18508, sequence (whole entry, looked up): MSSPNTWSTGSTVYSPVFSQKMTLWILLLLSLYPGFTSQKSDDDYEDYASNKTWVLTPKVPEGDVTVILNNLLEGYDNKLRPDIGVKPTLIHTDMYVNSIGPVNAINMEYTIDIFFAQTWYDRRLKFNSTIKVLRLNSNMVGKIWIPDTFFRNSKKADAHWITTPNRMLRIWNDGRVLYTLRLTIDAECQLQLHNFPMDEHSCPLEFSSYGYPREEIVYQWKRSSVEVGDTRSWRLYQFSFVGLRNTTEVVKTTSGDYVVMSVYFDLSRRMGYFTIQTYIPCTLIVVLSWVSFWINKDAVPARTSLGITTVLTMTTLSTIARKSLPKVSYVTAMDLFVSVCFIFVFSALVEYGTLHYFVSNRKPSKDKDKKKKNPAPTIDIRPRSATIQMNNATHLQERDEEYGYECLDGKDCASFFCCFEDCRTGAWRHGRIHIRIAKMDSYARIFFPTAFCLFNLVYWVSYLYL
Structure (SMILES),tested on,assay,test system,setting,scale,endpoint,result
CC(C)c1ccc2c(c1)CC[C@H]1[C@](C)(CN)CCC[C@]21C,WM278.1 melanoma (vertical growth phase),"cell viability, MTS",,24 h,,IC50,4.44 ± 0.65 µM
N[C@@H](Cc1c[nH]c2ccc(O)cc12)C(=O)O,"TMO-IaaH coupled enzymes, Burkholderia pyrrocinia","substrate, LC-MS, measured: 5-HIAA",,,,Km,2660 ± 197 µM
CC(N)Cc1ccc2ccoc2c1 (stereo not drawn),Slc6a3,"[3H]MPP+ release, releaser",rat brain synaptosomes,,"baseline: DAT over SERT, higher = more DAT-selective",selectivity ratio,3.6
C[C@]12CC[C@H](OS(=O)(=O)[O-])CC1=CC[C@@H]1[C@@H]2CC[C@]2(C)C(=O)CC[C@@H]12.[Na+],"sulfatase, human liver microsomes",substrate,,"pH 7.4, 37 °C",,Vmax,2 ± 0.2 nmol/min/mg
C[C@]12CCC(=O)CC1=CC[C@@H]1[C@@H]2CC[C@]2(C)C(=O)CC[C@@H]12,"HSD3B1 (Homo sapiens, UniProt P14060, H157Y)",substrate,,,,Km,27.9 µM
CC(=O)N[C@H](CCCCNC(=O)C(C)F)C(=O)N[C@@H](CS)C(=O)N[C@@H](CS)C(=O)N[C@@H](CCC(=O)O)C(=O)N[C@@H](Cc1c[nH]cn1)C(=O)N[C@H](Cc1ccccc1)C(=O)N[C@@H](CCCNC(=N)N)C(=O)N[C@@H](Cc1c[nH]c2ccccc12)C(=O)N[C@@H](CS)C(=O)N[C@@H](CCCNC(=N)N)C(=O)N1CCC[C@H]1C(=O)N[C@H](C(N)=O)C(C)C (stereo partly drawn) [fluorine-18 labelled],,,"nude mice, A375M xenograft, lung","intravenous, 2 h",,tissue uptake,0.68 ± 0.1 %ID/g
CNC(C)Cc1ccc2c(c1)OCO2 (racemic),,"Drug Effects Questionnaire, measured: Feel High",human,"oral, 0.75 mg/kg, mean over session, unit not given",baseline: pre-dose baseline,subjective drug effect rating,20.6
CC1(C)C(C(=O)c2cn(CCCCCF)c3ccccc23)C1(C)C,CNR1,"GIRK channel response, agonist",AtT20 expressing CB1,,baseline: WIN 55212-2 10 µM,Emax,53 ± 2.6%
COC[C@@H](NC(C)=O)C(=O)NCc1ccccc1,"SCN5A (Homo sapiens, UniProt Q14524)","sodium current, inhibitor, IonWorks Quattro",,,,Hill coefficient,0.72
[123I]c1cncc(OC[C@@H]2CCN2)c1,,SPECT,"human, brain cortex","intravenous bolus plus infusion, 7.8 mCi",baseline: plasma,tissue/plasma ratio,20.9
CP(=O)(O)CCC(N)C(=O)O (stereo not drawn),Chenopodium album,,,"60 g/ha, 13 days, CHEAL, post-emergence spray","baseline: untreated (0%), complete kill (100%)",herbicidal activity,40%
C/C(=C\CC/C(C)=C/COP(=O)(O)OP(=O)(O)O)CC/C=C(\C)CCCN(C)C,"Type B diterpene cyclase (Mycobacterium tuberculosis, UniProt O50406)","enzyme activity, inhibitor, measured: HPP from GGPP",,,,IC50,0.002 µM
CC[C@H](C)[C@@H]1NC(=O)[C@H](CCCNC(=N)N)NC(=O)[C@H](CC(=O)O)NC(=O)[C@H](CC(C)C)NC(=O)[C@H](CCCCN)NC(=O)[C@H](CC(C)C)NC(=O)CNC(=O)[C@H](Cc2ccccc2)NC(=O)[C@@H](NC(=O)CNC(=O)[C@H](CCCCN)NC(=O)[C@H](CO)NC(=O)[C@H](CC(C)C)NC(=O)CNC(=O)[C@H](CCCCN)NC(=O)[C@H](CCCCN)NC(=O)[C@H](CC(N)=O)NC(=O)[C@H](C)NC(=O)CNC(=O)[C@H](CCCCN)NC(=O)[C@H](Cc2ccc(O)cc2)NC(=O)[C@H](CCCCN)NC(=O)[C@H](CCCNC(=N)N)NC(=O)[C@H](C)NC(=O)[C@H](CC(N)=O)NC(=O)[C@@H]2CCCN2C(=O)[C@H](Cc2c[nH]cn2)NC(=O)[C@H](CCC(=O)O)NC(=O)[C@H](CCC(N)=O)NC(=O)CNC(=O)[C@@H]2CCCN2)CSSC[C@@H](C(=O)O)NC(=O)CNC(=O)[C@H](CC(C)C)NC(=O)CNC(=O)[C@H](CO)NC(=O)[C@H](CCSC)NC(=O)[C@H](CO)NC(=O)CNC1=O,,measured: urine cGMP/creatinine,"human patients with achondroplasia, urine","initial 6 months, sigmoid Emax vs Cmax",,Emax,10100 pmol/mg creatinine
CC(N)Cc1ccc2occc2c1 (stereo not drawn),Slc6a3,"[3H]MPP+ release, releaser",rat brain synaptosomes,,"baseline: DAT over NET, higher = more DAT-selective",selectivity ratio,0.67
C[C@]12CC[C@H]3[C@@H](CCC4=CC(=O)CC[C@@]43C)[C@@H]1CC[C@@H]2O,"CYP3A1/2, rat","substrate, substrate depletion, LC-MS/MS",rat liver microsomes,"30 min, pH 7.4, 37 °C, together with: NADPH 1 mM, probe cocktail",,Km,44.1 µM
CC1N=C(c2ccccc2F)c2cc(N(C)C)ccc2NC1=O (stereo not drawn),ADRA2C,"ligand displacement, radioligand",,10 µM,,inhibition,28%
CNC(C)Cc1ccc2occc2c1 (stereo not drawn),Slc6a3,"[3H]MPP+ release, releaser",rat brain synaptosomes,,"baseline: DAT over SERT, higher = more DAT-selective",selectivity ratio,1.56
N=C(N)NCCC[C@@H]1NC(=O)[C@H](CCCCNC(=O)[C@H](CC(=O)O)NC(=O)[C@H](CC(=O)O)NC(=O)[C@H](CC(=O)O)NC(=O)CC[C@H](NC(=O)CCOCCOCCOCCOCCNC(=O)c2ccc(NN)nc2)C(=O)N[C@@H](CC(=O)O)C(=O)N[C@@H](CC(=O)O)C(=O)N[C@@H](CC(=O)O)C(=O)NCCCC[C@@H]2NC(=O)[C@@H](Cc3ccccc3)NC(=O)[C@H](CC(=O)O)NC(=O)CNC(=O)[C@H](CCCNC(=N)N)NC2=O)NC(=O)[C@@H](Cc2ccccc2)NC(=O)[C@H](CC(=O)O)NC(=O)CNC1=O [technetium-99m labelled],,γ-counting,"female athymic nude mice, U-87 MG xenograft, heart","intravenous, 0.5 h",,tissue uptake,2.36 ± 0.24 %ID/g
C[C@H]1CNCCc2ccc(Cl)cc21,,,"male Sprague-Dawley rat, plasma","subcutaneous, 0.5 mg/kg, 0 h, given alone",,plasma concentration,0 ng/mL
Cc1ncc2n1-c1ccc(Cl)cc1C(c1ccccc1F)=NC2,,,"healthy men, plasma","oral, 7.5 mg, day 26, LS mean, together with: 14 days post amenamevir",,AUC(0-inf),122 ng·h/mL
CNC(C)Cc1ccc2c(c1)OCO2 (racemic),Slc6a3,"[3H]MPP+ release, releaser",rat brain synaptosomes,,"baseline: DAT over NET, higher = more DAT-selective",selectivity ratio,0.75
C[n+]1ccc(-c2ccccc2)cc1,"SLC29A4 (Homo sapiens, UniProt Q7RTT9)","transporter uptake, substrate, radiometric",,,,Km,43.6 µM
CN[C@@H](C)[C@H](O)c1ccccc1,"AASDHPPT (Homo sapiens, UniProt Q9NRN7)",enzyme activity,,"concentration not given, pH 7.6",,activity,inactive
CNC(C)Cc1ccc2ccoc2c1 (stereo not drawn),Slc6a3,"[3H]MPP+ release, releaser",rat brain synaptosomes,,"baseline: DAT over SERT, higher = more DAT-selective",selectivity ratio,1.65
c1ccc(CCN2CCCCC2)cc1,"GABA receptor, rat",binding,rat brain,together with: [3H]GABA 5 nM,,Ki,> 10 µM
CN(CC(N)=O)C(=O)C(C)(C)NC(=O)c1nn(Cc2ccc(F)cc2)c2ccccc12,CNR1,"calcium mobilization, agonist",CHO-K1 expressing Gαq16,,"baseline: CP55,940 maximum",Emax,103 ± 2%
CN[C@@](C)(C[18F])C(=O)O,SK-OV-3 tumour model,,"host not given, liver","1 h, tumour-bearing",,tracer uptake,2.8 %ID/g
CNC(C)C(=O)c1ccc(C)cc1 (stereo not drawn),Slc6a3,substrate release,rat brain synaptosomes,,baseline: SERT EC50 over target EC50,selectivity ratio,2.4
N[C@H]1[C@@H](O[C@@H]2[C@H](O)[C@H](O)[C@@H](O)[C@H](O)[C@H]2O)O[C@H](CO)[C@@H](O)[C@@H]1O,"L-cysteine:1D-myo-inositol 2-amino-2-deoxy-alpha-D-glucopyranoside ligase (Mycobacterium tuberculosis, UniProt P9WJM9)",substrate,,together with: other substrates saturating,,Km,710 ± 170 µM
NC(=O)C[S+]([O-])C(c1ccccc1)c1ccccc1 (stereo not drawn),"HRH3 (Homo sapiens, UniProt Q9Y5N1)",antagonist,membranes expressing H3 receptor,together with: (R)-α-methylhistamine 1 µM,,Kb,inactive
CCN(C(C)=O)c1cccc(-c2ccnc3c(C#N)cnn23)c1,"GABA-A receptor; alpha-1/beta-2/gamma-2 (Rattus norvegicus, UniProt P18508+P62813+P63138)","GABA-evoked current, positive modulator, automated patch clamp",HEK293,"10 µM, together with: GABA, EC30","baseline: 0.4 µM GABA response, direction not given",potentiation score,> 0.5
Nc1ncnc2c1ncn2[C@@H]1O[C@H](COP(=O)(O)OP(=O)(O)OP(O)(O)=S)[C@@H](O)[C@H]1O,"fadD23 (Mycobacterium tuberculosis, UniProt P9WQ47)","ATP probe labelling, competitor, chemoproteomics","Mycobacterium tuberculosis, lysate",500 µM,baseline: untreated,fold change,5 fold
CC1N=C(c2ccccc2F)c2cc(NC(C)(C)C)ccc2NC1=O (stereo not drawn),ADRA2C,"ligand displacement, radioligand",,10 µM,,inhibition,35%

# A few entries again:
Structure (SMILES),tested on,assay,test system,setting,scale,endpoint,result
CC(C)c1ccc2c(c1)CC[C@H]1[C@](C)(CN)CCC[C@]21C,WM278.1 melanoma (vertical growth phase),"cell viability, MTS",,24 h,,IC50,4.44 ± 0.65 µM
CP(=O)(O)CCC(N)C(=O)O (stereo not drawn),Chenopodium album,,,"60 g/ha, 13 days, CHEAL, post-emergence spray","baseline: untreated (0%), complete kill (100%)",herbicidal activity,40%
Cc1ncc2n1-c1ccc(Cl)cc1C(c1ccccc1F)=NC2,,,"healthy men, plasma","oral, 7.5 mg, day 26, LS mean, together with: 14 days post amenamevir",,AUC(0-inf),122 ng·h/mL
C[C@]12CC[C@H]3[C@@H](CCC4=CC(=O)CC[C@@]43C)[C@@H]1CC[C@@H]2O,"CYP3A1/2, rat","substrate, substrate depletion, LC-MS/MS",rat liver microsomes,"30 min, pH 7.4, 37 °C, together with: NADPH 1 mM, probe cocktail",,Km,44.1 µM
C[n+]1ccc(-c2ccccc2)cc1,"SLC29A4 (Homo sapiens, UniProt Q7RTT9)","transporter uptake, substrate, radiometric",,,,Km,43.6 µM
